{"data": "Published values collected from several papers", "KCNT1": "Potassium channel subfamily T member 1 (KCNT1, Homo sapiens, UniProt Q5JUK3)", "YAP1 WW1 domain": "Transcriptional coactivator YAP1, WW1 domain (YAP1, Homo sapiens, UniProt P46937)", "ERAP1 F803R": "Endoplasmic reticulum aminopeptidase 1 (ERAP1, Homo sapiens, UniProt Q9NZ08, F803R)", "CFTR del508-508": "Cystic fibrosis transmembrane conductance regulator (CFTR, Homo sapiens, UniProt P13569, del508-508)", "note": "Protocols differ between the studies behind these lines. “And” joins repeats or separate records; there may be more than shown. Numbers after ± are the reported error.", "UniProt Q9NZ08, sequence (whole entry, unmodified, looked up)": "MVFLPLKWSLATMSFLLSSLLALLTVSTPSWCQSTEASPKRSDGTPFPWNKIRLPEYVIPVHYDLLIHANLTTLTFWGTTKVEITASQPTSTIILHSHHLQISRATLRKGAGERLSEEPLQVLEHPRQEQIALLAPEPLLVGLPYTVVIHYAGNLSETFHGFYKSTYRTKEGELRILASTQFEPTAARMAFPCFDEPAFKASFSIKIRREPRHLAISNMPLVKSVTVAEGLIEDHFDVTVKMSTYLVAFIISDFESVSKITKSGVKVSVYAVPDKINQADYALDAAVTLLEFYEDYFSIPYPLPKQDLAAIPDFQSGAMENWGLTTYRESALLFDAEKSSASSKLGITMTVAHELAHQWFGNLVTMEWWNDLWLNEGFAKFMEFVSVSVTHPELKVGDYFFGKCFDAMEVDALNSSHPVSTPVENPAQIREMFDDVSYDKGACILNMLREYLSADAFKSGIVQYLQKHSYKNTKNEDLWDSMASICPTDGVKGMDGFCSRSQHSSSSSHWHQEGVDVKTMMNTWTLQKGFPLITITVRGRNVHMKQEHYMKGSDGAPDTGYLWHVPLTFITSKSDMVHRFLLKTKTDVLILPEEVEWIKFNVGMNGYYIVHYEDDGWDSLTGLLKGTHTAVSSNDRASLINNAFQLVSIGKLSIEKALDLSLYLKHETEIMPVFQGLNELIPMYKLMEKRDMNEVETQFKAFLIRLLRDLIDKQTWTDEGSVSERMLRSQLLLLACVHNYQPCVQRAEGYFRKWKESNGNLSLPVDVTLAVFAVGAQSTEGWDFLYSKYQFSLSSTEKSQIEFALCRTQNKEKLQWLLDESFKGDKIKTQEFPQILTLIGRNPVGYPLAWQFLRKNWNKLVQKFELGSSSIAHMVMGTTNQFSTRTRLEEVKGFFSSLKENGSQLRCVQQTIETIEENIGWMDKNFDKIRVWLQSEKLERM", "UniProt Q5JUK3, sequence (whole entry, unmodified, looked up)": "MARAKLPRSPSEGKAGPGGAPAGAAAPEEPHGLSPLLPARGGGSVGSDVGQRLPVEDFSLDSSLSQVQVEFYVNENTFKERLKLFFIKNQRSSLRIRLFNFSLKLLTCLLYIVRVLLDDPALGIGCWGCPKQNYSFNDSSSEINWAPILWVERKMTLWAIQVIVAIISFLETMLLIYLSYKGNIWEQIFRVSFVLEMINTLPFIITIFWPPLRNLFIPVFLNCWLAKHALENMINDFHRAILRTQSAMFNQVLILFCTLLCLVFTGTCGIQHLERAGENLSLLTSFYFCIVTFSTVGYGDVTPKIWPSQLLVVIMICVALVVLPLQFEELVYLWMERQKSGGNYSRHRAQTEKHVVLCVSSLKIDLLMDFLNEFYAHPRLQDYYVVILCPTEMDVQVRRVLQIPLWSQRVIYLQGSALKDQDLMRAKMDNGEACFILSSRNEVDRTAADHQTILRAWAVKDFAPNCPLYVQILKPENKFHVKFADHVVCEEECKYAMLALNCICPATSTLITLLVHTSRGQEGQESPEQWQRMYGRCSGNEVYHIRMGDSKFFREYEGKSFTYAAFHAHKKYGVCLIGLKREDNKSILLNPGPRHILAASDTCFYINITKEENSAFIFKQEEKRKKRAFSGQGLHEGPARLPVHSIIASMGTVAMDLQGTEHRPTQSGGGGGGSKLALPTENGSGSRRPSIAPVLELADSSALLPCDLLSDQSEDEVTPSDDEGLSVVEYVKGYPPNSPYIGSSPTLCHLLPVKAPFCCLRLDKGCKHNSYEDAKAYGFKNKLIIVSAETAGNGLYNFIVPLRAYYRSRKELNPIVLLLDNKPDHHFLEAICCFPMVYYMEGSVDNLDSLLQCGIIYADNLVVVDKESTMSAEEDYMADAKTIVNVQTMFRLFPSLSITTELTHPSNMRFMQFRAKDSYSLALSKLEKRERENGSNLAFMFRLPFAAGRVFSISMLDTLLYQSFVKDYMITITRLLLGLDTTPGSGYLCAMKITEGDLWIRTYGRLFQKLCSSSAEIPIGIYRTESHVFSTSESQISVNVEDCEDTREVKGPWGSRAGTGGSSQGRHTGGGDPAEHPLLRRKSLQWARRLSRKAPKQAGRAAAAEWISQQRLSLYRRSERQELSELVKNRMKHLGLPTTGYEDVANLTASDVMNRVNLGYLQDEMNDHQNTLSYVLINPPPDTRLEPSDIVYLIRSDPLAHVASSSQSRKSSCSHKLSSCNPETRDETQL", "UniProt P03951, sequence (whole entry, looked up)": "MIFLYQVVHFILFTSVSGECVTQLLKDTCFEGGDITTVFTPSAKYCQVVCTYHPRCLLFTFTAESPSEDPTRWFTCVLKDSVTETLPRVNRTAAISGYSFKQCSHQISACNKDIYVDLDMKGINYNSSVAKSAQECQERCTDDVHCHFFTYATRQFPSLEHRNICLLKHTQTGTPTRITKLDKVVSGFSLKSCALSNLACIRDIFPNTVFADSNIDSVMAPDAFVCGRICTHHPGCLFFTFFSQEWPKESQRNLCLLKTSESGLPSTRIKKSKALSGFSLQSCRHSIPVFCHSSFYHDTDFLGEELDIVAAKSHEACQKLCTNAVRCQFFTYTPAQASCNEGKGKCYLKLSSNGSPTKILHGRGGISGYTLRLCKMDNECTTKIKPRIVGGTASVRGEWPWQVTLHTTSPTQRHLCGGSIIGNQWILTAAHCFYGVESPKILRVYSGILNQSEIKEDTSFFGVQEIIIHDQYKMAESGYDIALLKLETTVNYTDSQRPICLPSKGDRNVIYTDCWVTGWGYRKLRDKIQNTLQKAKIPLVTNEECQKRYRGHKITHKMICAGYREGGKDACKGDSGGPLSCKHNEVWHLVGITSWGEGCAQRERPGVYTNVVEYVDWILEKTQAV", "UniProt P0A334, sequence (whole entry, looked up)": "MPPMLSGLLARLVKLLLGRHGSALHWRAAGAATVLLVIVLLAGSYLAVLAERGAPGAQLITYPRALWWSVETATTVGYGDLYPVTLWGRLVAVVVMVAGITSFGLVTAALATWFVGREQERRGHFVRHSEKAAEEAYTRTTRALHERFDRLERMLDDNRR", "UniProt Q9Y2U9, sequence (whole entry, looked up)": "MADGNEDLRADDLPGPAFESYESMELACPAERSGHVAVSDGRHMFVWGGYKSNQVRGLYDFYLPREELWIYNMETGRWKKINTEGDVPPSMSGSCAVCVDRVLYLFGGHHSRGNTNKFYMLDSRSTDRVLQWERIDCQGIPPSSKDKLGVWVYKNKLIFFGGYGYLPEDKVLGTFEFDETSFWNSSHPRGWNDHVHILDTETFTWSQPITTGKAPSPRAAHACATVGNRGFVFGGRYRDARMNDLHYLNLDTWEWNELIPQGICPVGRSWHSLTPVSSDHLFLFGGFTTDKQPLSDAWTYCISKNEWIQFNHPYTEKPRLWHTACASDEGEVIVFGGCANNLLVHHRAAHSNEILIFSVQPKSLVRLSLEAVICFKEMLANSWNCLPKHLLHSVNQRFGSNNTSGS", "UniProt Q02218, sequence (whole entry, looked up)": "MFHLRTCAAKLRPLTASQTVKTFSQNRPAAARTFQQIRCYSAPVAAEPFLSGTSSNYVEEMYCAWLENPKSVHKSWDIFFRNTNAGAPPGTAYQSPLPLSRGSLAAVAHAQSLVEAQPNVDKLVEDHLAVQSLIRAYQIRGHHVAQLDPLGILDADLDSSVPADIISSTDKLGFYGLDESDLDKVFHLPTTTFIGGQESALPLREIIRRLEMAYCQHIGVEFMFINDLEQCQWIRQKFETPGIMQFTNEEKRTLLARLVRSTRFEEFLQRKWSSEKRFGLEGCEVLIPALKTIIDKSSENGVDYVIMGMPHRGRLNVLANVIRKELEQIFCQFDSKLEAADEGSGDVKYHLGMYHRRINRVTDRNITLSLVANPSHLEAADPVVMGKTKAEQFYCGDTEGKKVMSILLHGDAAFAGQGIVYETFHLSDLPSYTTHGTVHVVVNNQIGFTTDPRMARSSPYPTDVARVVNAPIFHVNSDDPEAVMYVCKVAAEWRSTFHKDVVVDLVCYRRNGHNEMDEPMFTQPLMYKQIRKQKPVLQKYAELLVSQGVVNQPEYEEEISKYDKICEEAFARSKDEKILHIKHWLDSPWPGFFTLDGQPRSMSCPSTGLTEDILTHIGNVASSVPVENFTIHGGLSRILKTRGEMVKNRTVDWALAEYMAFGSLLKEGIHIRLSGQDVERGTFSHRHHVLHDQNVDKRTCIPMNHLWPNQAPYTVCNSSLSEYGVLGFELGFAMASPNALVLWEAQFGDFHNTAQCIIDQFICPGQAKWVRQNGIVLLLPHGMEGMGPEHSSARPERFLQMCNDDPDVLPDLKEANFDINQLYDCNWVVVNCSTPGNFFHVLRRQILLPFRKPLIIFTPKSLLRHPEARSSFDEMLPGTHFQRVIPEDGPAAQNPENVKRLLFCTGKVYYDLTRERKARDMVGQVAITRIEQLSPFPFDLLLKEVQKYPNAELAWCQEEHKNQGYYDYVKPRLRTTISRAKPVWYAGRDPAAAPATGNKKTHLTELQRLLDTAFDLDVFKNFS", "UniProt Q01469, sequence (whole entry, looked up)": "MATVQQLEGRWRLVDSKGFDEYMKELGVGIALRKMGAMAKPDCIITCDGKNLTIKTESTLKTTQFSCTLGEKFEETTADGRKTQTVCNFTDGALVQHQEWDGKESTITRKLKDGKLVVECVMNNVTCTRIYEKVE"}
{"Molecule": "CCOc1ccccc1S(=O)(=O)N1CC(c2nc(-c3ccc(F)s3)no2)C1", "target": "KCNT1", "test": "ion current, activator, automated patch clamp", "test system": "CHO", "conditions": "30 µM", "scale": "reference: bepridil 60 µM", "endpoint": "efficacy", "result": "100%"}
{"Molecule": "CCCCCCCC/C=C\\CCCCCCCC(=O)OC[C@H](COP(=O)(O)OCC(O)CO)OC(=O)CCCCCCC/C=C\\CCCCCCCC (some centres unmarked)", "target": "kcsA (Streptomyces lividans, UniProt P0A334)", "test": "channel opening, activator, contact bubble bilayer", "test system": "POPC bilayer", "conditions": "25 wt%, pH 4 inside, 7.5 outside, 100 mV", "endpoint": "open probability", "result": "17%"}
{"Molecule": "C/C(=N/N=c1/scc(-c2ccc(Br)cc2)n1Cc1ccccc1)c1ccc2c(c1)OCCO2", "target": "Aldo-keto reductase family 1 member A1 (Bos taurus, UniProt Q3ZCJ2)", "test": "enzyme activity, inhibitor, absorbance", "conditions": "1 mM", "endpoint": "inhibition", "result": "23.4%"}
{"Molecule": "YSLAAVVLGLVQSLNRQRQKQLLNE", "target": "Calmodulin-1 (Calm1, Rattus norvegicus, UniProt P0DP29)", "test": "Ca2+ dissociation, stopped-flow quin-2 fluorescence", "test system": "peptide", "conditions": "2 µM, pH 7.4, 22 °C, together with: Ca2+-calmodulin complex", "endpoint": "koff2", "result": "1.59 s⁻¹ and 1.6 s⁻¹"}
{"Molecule": "CSCC[C@H](NC(=O)[C@@H]1CCCN1C(=O)[C@@H](NC(=O)[C@H](Cc1ccc(O)cc1)NC(=O)[C@H](C)NC(=O)[C@@H]1CCCN1C(=O)[C@@H]1CCCN1C(=O)[C@@H]1CCCN1C(=O)[C@H](CO)NC(=O)[C@H](Cc1c[nH]cn1)NC(=O)CN)[C@@H](C)O)C(=O)N[C@@H](CO)C(=O)O", "target": "YAP1 WW1 domain", "test": "binding, ITC", "conditions": "pH 7.0, 25 °C, WW1 domain", "endpoint": "ΔG", "result": "-23.3 ± 0.335 kJ/mol"}
{"Molecule": "CCOc1ccccc1S(=O)(=O)N1CC(c2nc(-c3ccsc3)no2)C1", "target": "KCNT1", "test": "ion current, activator, automated patch clamp", "test system": "CHO", "conditions": "30 µM", "scale": "reference: bepridil 60 µM", "endpoint": "efficacy", "result": "100%"}
{"Molecule": "Nc1ccc(-c2nc([C@H]3CCc4cc(-c5cc(Cl)ccc5-n5cnnn5)cc(=O)n43)c(F)[nH]2)c(F)n1", "target": "Coagulation factor XI (F11, Homo sapiens, UniProt P03951)", "test": "factor XI coagulant activity", "test system": "human, blood", "conditions": "oral, 80 mg once daily, 14 days, fed", "endpoint": "maximum inhibition", "result": "75 ± 7.7%"}
{"Molecule": "Clc1cccc(SSc2cccc(Cl)c2)c1", "target": "tubulin", "test": "colchicine binding, [3H]colchicine binding", "conditions": "50 µM, 10 min, 37 °C, together with: [3H]colchicine 5.0 µM", "endpoint": "inhibition", "result": "18 ± 5%"}
{"Molecule": "COc1ncc(C[n+]2csc(CCOP(=O)(O)OP(=O)(O)O)c2C)c(N)n1", "target": "2-oxoglutarate dehydrogenase complex component E1, within OGDH complex (Homo sapiens, UniProt Q02218)", "test": "NADH formation", "conditions": "0.20 mM, OGDH complex", "endpoint": "enzyme activity", "result": "10 ± 0.35 µmol/min/mg E1o"}
{"Molecule": "IINFEKL", "target": "ERAP1 F803R", "test": "L-AMC hydrolysis, activator", "test system": "peptide", "conditions": "100 µM, 5 min, pH 8.0, 27 °C, mutant F803R, together with: L-AMC varied from 0 µM", "endpoint": "Vmax", "result": "379 ± 4 nmol/min/µg"}
{"Molecule": "Oc1ccccc1", "target": "Sulfotransferase 1A1 (SULT1A1, Homo sapiens, UniProt P50225)", "test": "sulfation, inhibitor", "conditions": "pH 6.2, 37 °C, competitive versus pNPS, dead-end complex, together with: PAP 0.1 mM", "endpoint": "Ki", "result": "1500 ± 300 µM"}
{"Molecule": "O=P(O)(O)C(F)(F)C(F)(F)C(F)(F)C(F)(F)C(F)(F)C(F)(F)C(F)(F)C(F)(F)F", "target": "Fatty acid-binding protein 5 (FABP5, Homo sapiens, UniProt Q01469)", "test": "probe binding, competitive probe labeling LC-MS/MS", "test system": "HEK293T lysate", "conditions": "100 µM over 10 µM, desthiobiotin probe", "endpoint": "heavy/light labeling ratio", "result": 1.64}
{"Molecule": "Oc1ccc(/C=C/c2ccc3cc4ccccc4cc3c2)cc1O", "target": "Transthyretin, fibrils (TTR, Homo sapiens, UniProt P02766)", "test": "binding, fluorescence emission", "conditions": "1 µM, pH 3.0, together with: 5 µM fibrils (monomer)", "scale": "reference: free compound", "endpoint": "fluorescence increase", "result": "8.8 fold"}
{"Molecule": "O=C(O)c1cccc(O)c1O", "target": "Enterobactin synthase component B, with EntC (entB, Escherichia coli, UniProt P0ADI4)", "test": "isochorismatase activity, EntC-EntB-LDH coupled", "conditions": "350 µM, 0.05 µM EntC, 1.25 µM EntB, together with: 6.25 µM MenD competitor, 26 µM chorismate", "scale": "reference: without MenD", "endpoint": "remaining activity", "result": "~5%"}
{"Molecule": "CC(C)C[C@H](NC(=O)[C@@H](NC(=O)[C@@H](N)[C@@H](C)O)C(C)C)C(=O)N1CCC[C@H]1C(=O)N1CCC[C@H]1C(=O)N1CCC[C@H]1C(=O)N[C@@H](C)C(=O)N[C@@H](Cc1ccc(O)cc1)C(=O)N[C@@H](CCCNC(=N)N)C(=O)N[C@@H](Cc1c[nH]cn1)C(=O)N[C@@H](CCCNC(=N)N)C(=O)N[C@@H](CC(N)=O)C(=O)O", "target": "Transcriptional coactivator YAP1, WW2 domain (YAP1, Homo sapiens, UniProt P46937)", "test": "binding, ITC", "conditions": "pH 7.0, 25 °C, WW2 domain", "endpoint": "ΔG", "result": "-22.3 ± 0.335 kJ/mol"}
{"Molecule": "COc1ccc(Cl)cc1Nc1nc2c(s1)CCCCc1nc(NC(=O)C(C)C)sc1-2", "target": "CFTR del508-508", "test": "iodide influx, corrector, YFP halide quenching", "test system": "FRT cells expressing YFP-H148Q/I152L", "conditions": "16 to 20 h, 37 °C, genistein 50 µM, together with: forskolin 20 µM", "endpoint": "Vmax", "result": "717 µM/s"}
{"Molecule": "CASDEGEVIVFGG", "target": "Kelch domain-containing protein 2 (UniProt Q9Y2U9)", "test": "native mass spectrometry", "test system": "peptide, 200 mM ammonium acetate", "conditions": "20 µM Kelch domain-containing protein 2, pH 7", "scale": "reference: total Kelch domain-containing protein 2 signal", "endpoint": "fraction of protein bound", "result": "2%"}
{"Molecule": "IINFEKE", "target": "ERAP1 F803R", "test": "L-AMC hydrolysis, activator", "test system": "peptide", "conditions": "100 µM, 5 min, pH 8.0, 27 °C, mutant F803R, together with: L-AMC varied from 0 µM", "endpoint": "Vmax", "result": "179 ± 1 nmol/min/µg"}
{"Molecule": "Nc1ncnc2c1ncn2[C@@H]1O[C@H](COP(=O)(O)OP(=O)(O)OP(=O)(O)O)[C@@H](O)[C@H]1O", "target": "Sodium/potassium-transporting ATPase subunit alpha-1 (ATP1A1, Canis lupus familiaris, UniProt P50997)", "test": "binding, ligand dissociation kinetics", "test system": "dog enzyme", "conditions": "Na+ 200 mM, 4 °C, Et3N+ replacement, total monovalent cation 500 mM, nitrate, preparation B", "endpoint": "dissociation rate constant", "result": "0.73 ± 0.07 s⁻¹"}
{"Molecule": "CC(C)C[C@H](NC(=O)[C@H](C)NC(=O)[C@@H](N)[C@@H](C)O)C(=O)N1CCC[C@H]1C(=O)N1CCC[C@H]1C(=O)N1CCC[C@H]1C(=O)N1CCC[C@H]1C(=O)N[C@@H](Cc1ccc(O)cc1)C(=O)N[C@@H](CCCNC(=N)N)C(=O)N[C@@H](Cc1c[nH]cn1)C(=O)N[C@@H](CCCNC(=N)N)C(=O)N[C@@H](CC(N)=O)C(=O)O", "target": "YAP1 WW1 domain", "test": "binding, ITC", "conditions": "pH 7.0, 25 °C, WW1 domain", "endpoint": "ΔG", "result": "-24.8 ± 0.377 kJ/mol"}
{"Molecule": "COc1ccc(Cl)cc1Nc1nc2c(s1)CCCc1nc(NC(=O)c3ccno3)sc1-2", "target": "CFTR del508-508", "test": "iodide influx, corrector, YFP halide quenching", "test system": "FRT cells expressing YFP-H148Q/I152L", "conditions": "16 to 20 h, 37 °C, genistein 50 µM, together with: forskolin 20 µM", "endpoint": "Vmax", "result": "505 µM/s"}
{"Molecule": "CC[C@H](C)[C@H](NC(=O)[C@@H]1CCCN1C(=O)[C@@H]1CCCN1C(=O)[C@@H]1CCCN1C(=O)[C@@H](NC(=O)[C@H](CC(N)=O)NC(=O)[C@@H](N)Cc1ccccc1)[C@@H](C)CC)C(=O)N[C@@H](Cc1ccc(O)cc1)C(=O)N[C@H](C(=O)N[C@@H](CO)C(=O)N[C@@H](CCCNC(=N)N)C(=O)N[C@@H](C)C(=O)O)[C@@H](C)O", "target": "YAP1 WW1 domain", "test": "binding, ITC", "conditions": "pH 7.0, 25 °C, WW1 domain", "endpoint": "ΔH", "result": "-25.7 ± 1.3 kJ/mol"}
{"Molecule": "O=C(O)/C(O)=C/C=C\\Br", "target": "4-oxalocrotonate tautomerase (Leptothrix cholodnii, UniProt B1Y2E4)", "test": "irreversible inactivation, covalent inhibitor", "conditions": "pH 7.3, 24 °C", "endpoint": "KI", "result": "260 µM"}
{"note": "Repeated from above:"}
{"Molecule": "C/C(=N/N=c1/scc(-c2ccc(Br)cc2)n1Cc1ccccc1)c1ccc2c(c1)OCCO2", "target": "Aldo-keto reductase family 1 member A1 (Bos taurus, UniProt Q3ZCJ2)", "test": "enzyme activity, inhibitor, absorbance", "conditions": "1 mM", "endpoint": "inhibition", "result": "23.4%"}
